Experimental data from different studies.
Parts stem from different laboratories: compare values within a part only. Substitutions count along the parent as printed.

Series 1 — technique: protein binding microarray; form: double-stranded DNA, one strand shown; matrix: in vitro; tested at: not given; relative to: not given; direction: higher = stronger binding; endpoint: E-score
Target: Histone acetyltransferase KAT6A, winged helix 2, GST fusion (KAT6A, Homo sapiens, UniProt Q92794, residues 85-181)
Notes: 8-mer, flanks averaged, mean of 2 arrays, mostly near background
Construct (chain): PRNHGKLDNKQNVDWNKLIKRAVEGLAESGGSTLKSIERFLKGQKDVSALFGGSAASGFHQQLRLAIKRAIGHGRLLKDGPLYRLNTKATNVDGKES
AGGGAAAT: -0.0458
CGGCTCTC: 0.118
ATGACGTC: -0.0856
AGACGAGG: -0.0147
CGGCGCAA: 0.0823
ACCCCAAC: -0.0237
ACGCAATC: -0.0676
GGCTTGCA: 0.116
ACCTAATG: -0.2
CTTGGAAC: -0.0241
ACCTTCTC: -0.0318
CAACGGGA: -0.0158
GTGTTTGA: 0.118
AAGTCATT: -0.233

Series 2 — technique: protein-binding microarray; form: double-stranded DNA, one strand shown; matrix: in vitro; tested at: 2540 nM top; notes: 60-bp whole probe; added: salmon DNA 0.4 mg/ml; relative to: random background probes; direction: higher = stronger binding; endpoint: fitted relative affinity; all sequences stand within: GCCTAGCAC … GTCTTGATTCGCTTGACGCTGCTG
Target: Interferon regulatory factor 3, full length, phosphomimetic (IRF3, Homo sapiens, UniProt Q14653, residues 1-427, S386D/S396D/S398D/S402D/T404D/S405D)
Residues (chain): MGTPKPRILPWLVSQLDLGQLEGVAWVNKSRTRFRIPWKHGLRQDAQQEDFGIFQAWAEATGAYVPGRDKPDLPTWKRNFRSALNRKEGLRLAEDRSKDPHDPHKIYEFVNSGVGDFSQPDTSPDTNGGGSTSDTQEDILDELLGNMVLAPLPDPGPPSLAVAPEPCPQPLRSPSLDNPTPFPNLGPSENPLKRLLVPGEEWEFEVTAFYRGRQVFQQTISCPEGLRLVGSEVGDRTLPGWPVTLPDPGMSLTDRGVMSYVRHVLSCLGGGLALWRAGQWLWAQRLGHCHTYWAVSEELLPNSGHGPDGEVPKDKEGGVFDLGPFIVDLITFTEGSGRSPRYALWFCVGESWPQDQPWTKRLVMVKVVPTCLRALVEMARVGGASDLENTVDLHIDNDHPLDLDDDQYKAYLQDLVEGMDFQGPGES
GGCGGTTTCCTTTTCCTGACGTGCTAG: 11.1 z-score
TTAGCACTGGACTATCGGTTAGTGCTA: -0.557 z-score
TTAGAATTGGGGTTTCGATTAGTGCTA: 1.38 z-score
GACGGTCTCCTACTGCTGCCGTGCTAG: 0.842 z-score
TCAGCTCTGGCACCTCTAACTGTGCTA: -0.643 z-score
TCAGGAGTCAACTCTCTAACTGTGCTA: -0.308 z-score
TTAGTTCTGAGTCTTCCCTTGTGCTAG: -0.0275 z-score
TCACTTCTCCCTTTCAGTTTGTGCTAG: 3.3 z-score
GACGATCACAGACTGGAGACGTGCTAG: 0.0578 z-score
TTAGATATCGGTATCGGTTAGTGCTAG: 3.24 z-score
TTAGAACTGAGACTGGATTAGTGCTAG: -0.286 z-score

Series 3 — target: CCNB2, cyclin fold, Cln2 fusion (human); technique: yeast growth competition, sequencing; matrix: yeast; notes: weak parent motif; relative to: not given; direction: higher = stronger binding; endpoint: normalised enrichment score
Parent: RB1 docking peptide (human); PKPLKKLRFDIEG; partner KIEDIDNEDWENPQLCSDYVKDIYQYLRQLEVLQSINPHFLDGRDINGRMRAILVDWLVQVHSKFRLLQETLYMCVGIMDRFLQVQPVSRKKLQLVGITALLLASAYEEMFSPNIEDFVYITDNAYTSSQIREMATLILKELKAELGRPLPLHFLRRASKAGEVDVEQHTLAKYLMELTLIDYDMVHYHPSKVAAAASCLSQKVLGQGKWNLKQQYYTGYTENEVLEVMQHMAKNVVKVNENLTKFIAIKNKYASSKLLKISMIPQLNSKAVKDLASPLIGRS
K5H: 0.421
K5E: -0.285
L7Y: 0.0623
L4D: 1.16
D10M: 0.823
K2I: 0.597
D10C: 0.308
I11N: 0.724

Single results of other studies
PhoQ, residues 284 288 289 292 302 303 AGGCYF  fold induction (PhoP, residues 12 14 15 18 19 QQAYL (Escherichia coli, UniProt P23836); Sort-seq, refers to: YFP reporter; E. coli; PhoQ-PhoP variant library, added: 10 µM Mg2+; relative to: high Mg2+ state, higher = stronger signaling): 2.71

Some of these lines once more (series 1):
ACCCCAAC: -0.0237
ACGCAATC: -0.0676
